Results pooled from the literature.
Compare with care: the assays were run in different laboratories.
Partner: itself
B1: SLFN11 1-901 E209A/E214A (Homo sapiens, UniProt Q7Z7L1); chain MEANQCPLVVEPSYPDLVINVGEVTLGEENRKKLQKIQRDQEKERVMRAACALLNSGGGVIRMAKKVEHPVEMGLDLEQSLRELIQSSDLQAFFETKQQGRCFYIFVKSWSSGPFPEDRSVKPRLCSLSSSLYRRSETSVRSMDSREAFCFLKTKRKPKILEEGPFHKIHKGVYQELPNSDPADPNSDPADLIFQKDYLEYGEILPFPASQLVAFKQFSTKHFQEYVKRTIPEYVPAFANTGGGYLFIGVDDKSREVLGCAKENVDPDSLRRKIEQAIYKLPCVHFCQPQRPITFTLKIVNVLKRGELYGYACMIRVNPFCCAVFSEAPNSWIVEDKYVCSLTTEKWVGMMTDTDPDLLQLSEDFECQLSLSSGPPLSRPVYSKKGLEHKKELQQLLFSVPPGYLRYTPESLWRDLISEHRGLEELINKQMQPFFRGILIFSRSWAVDLNLQEKPGVICDALLIAQNSTPILYTILREQDAEGQDYCTRTAFTLKQKLVNMGGYTGKVCVRAKVLCLSPESSAEALEAAVSPMDYPASYSLAGTQHMEALLQSLVIVLLGFRSLLSDQLGCEVLNLLTAQQYEIFSRSLRKNRELFVHGLPGSGKTIMAMKIMEKIRNVFHCEAHRILYVCENQPLRNFISDRNICRAETRKTFLRENFEHIQHIVIDEAQNFRTEDGDWYGKAKSITRRAKGGPGILWIFLDYFQTSHLDCSGLPPLSDQYPREELTRIVRNADPIAKYLQKEMQVIRSNPSFNIPTGCLEVFPEAEWSQGVQGTLRIKKYLTVEQIMTCVADTCRRFFDRGYSPKDVAVLVSTAKEVEHYKYELLKAMRKKRVVQLSDACDMLGDHIVLDSVRRFSGLERSIVFGIHPRTADPAILPNVLICLASRAKQHLYIFPWGGH
B2: rga8 1-420 K62A/K64A/K65A/K141A/K142A/K144A (Schizosaccharomyces pombe, UniProt Q09697); sequence looked up; chain MISSFSNGFWSKDYATGVKKLFDCLDNGVEENEQVKNLLKLYKEANEEFGEKLQEITKECLAGAAPENTEDGATSNKAFEGLRSEIANQGKQHIRIAKDLETLIIAPFSKMSIDHSQKLQTSQQVLTNQIKSYEKKYYTLAATASAYYNKCRNLEDYEEESKESNETTSEAITDLTTVSSPQQQSLLENDDDLIQLGFMEFRPEELKEVLAQVLQEIPLQDYRVPILGTYPNTCSGNIIVSWLQENLPVPTLVAAEAFGQDLIAQGFLRHMGVGGSFVNSTNFHYQWKDKAFQFAGLNSVDSLVENAKALPLVGEYLSDYISHRKLYSSETQSQRLKREVLDANKIYSESVVDLDKCRTLVEETIADHLQFLQKCETDRVLYYKDFFMDLSTIISNFLPSMKLLADQIVVYQEIIQPESD
B3: cutA1 1-112 (Escherichia coli, UniProt P69488); chain MLDEKSSNTASVVVLCTAPDEATAQDLAAKVLAEKLAACATLIPGATSLYYWEGKLEQEYEVQMILKTTVSHQQALLECLKSHHPYQTPELLVLPVTHGDTDYLSWLNASLR
B4: Ikbkg 251-355 (Mus musculus, UniProt O88522); sequence looked up; chain MQLEDLRQQLQQAEEALVAKQELIDKLKEEAEQHKIVMETVPVLKAQADIYKADFQAERHAREKLVEKKEYLQEQLEQLQREFNKLKVGCHESARIEDMRKRHVE
B5: PHYA I748P (Arabidopsis thaliana, UniProt P14712); phytochromobilin thioether linked; chain GMSGSRPTQSSEGSRRSRHSARIIAQTTVDAKLHADFEESGSSFDYSTSVRVTGPVVENQPPRSDKVTTTYLHHIQKGKLIQPFGCLLALDEKTFKVIAYSENASELLTMASHAVPSVGEHPVLGIGTDIRSLFTAPSASALQKALGFGDVSLLNPILVHCRTSAKPFYAIIHRVTGSIIIDFEPVKPYEVPMTAAGALQSYKLAAKAITRLQSLPSGSMERLCDTMVQEVFELTGYDRVMAYKFHEDDHGEVVSEVTKPGLEPYLGLHYPATDIPQAARFLFMKNKVRMIVDCNAKHARVLQDEKLSFDLTLCGSTLRAPHSCHLQYMANMDSIASLVMAVVVNEEDGEGDAPDATTQPQKRKRLWGLVVCHNTTPRFVPFPLRYACEFLAQVFAIHVNKEVELDNQMVEKNILRTQTLLCDMLMRDAPLGIVSQSPNIMDLVKCDGAALLYKDKIWKLGTTPSEFHLQEIASWLCEYHMDSTGLSTDSLHDAGFPRALSLGDSVCGMAAVRISSKDMIFWFRSHTAGEVRWGGAKHDPDDRDDARRMHPRSSFKAFLEVVKTRSLPWKDYEMDAIHSLQLILRNAFKDSETTDVNTKVIYSKLNDLKIDGIQELEAVTSEMVRLIETATVPILAVDSDGLVNGWNTKIAELTGLSVDEAIGKHFLTLVEDSSVEIVKRMLENALEGTEEQNVQFEIKTHLSRADAGPISLVVNACASRDLHENVVGVCFVAHDLTGQKTVMDKFTRPEGDYKAIIQNPNPLIPPIFGTDEFGWCTEWNPAMSKLTGLKREEVIDKMLLGEVFGTQKSCCRLKNQEAFVNLGIVLNNAVTSQDPEKVSFAFFTRGGKYVECLLCVSKKLDREGVVTGVFCFLQLASHELQQALHVQRLAERTAVKRLKALAYIKRQIRNPLSGIMFTRKMIEGTELGPEQRRILQTSALCQKQLSKILDDSDLESIIEGCLDLEMKEFTLNEVLTASTSQVMMKSNGKSVRITNETGEEVMSDTLYGDSIRLQQVLADFMLMAVNFTPSGGQLTVSASLRKDQLGRSVHLANLEIRLTHTGAGIPEFLLNQMFGTEEDVSEEGLSLMVSRKLVKLMNGDVQYLRQAGKSSFIITAELAAANK
B6: ldh 1-316 (Geobacillus stearothermophilus, UniProt P00344); chain MKNNGGARVVVIGAGFVGASYVFALMNQGIADEIVLIDANESKAIGDAMDFNHGKVFAPKPVDIWHGDYDDCRDADLVVICAGANQKPGETRLDLVDKNIAIFRSIVESVMASGFQGLFLVATNPVDILTYATWKFSGLPHERVIGSGTILDTARFRFLLGEYFSVAPQNVHAYIIGEHGDTELPVWSQAYIGVMPIRKLVESKGEEAQKDLERIFVNVRDAAYQIIEKKGATYYGIAMGLARVTRAILHNENAILTVSAYLDGLYGERDVYIGVPAVINRNGIREVIEIELNDDEKNRFHHSAATLKSVLARAFT
B7: GGPS1 R235C (Homo sapiens, UniProt O95749); sequence looked up; chain MEKTQETVQRILLEPYKYLLQLPGKQVRTKLSQAFNHWLKVPEDKLQIIIEVTEMLHNASLLIDDIEDNSKLRRGFPVAHSIYGIPSVINSANYVYFLGLEKVLTLDHPDAVKLFTRQLLELHQGQGLDIYWRDNYTCPTEEEYKAMVLQKTGGLFGLAVGLMQLFSDYKEDLKPLLNTLGLFFQIRDDYANLHSKEYSENKSFCEDLTEGKFSFPTIHAIWSRPESTQVQNILCQRTENIDIKKYCVHYLEDVGSFEYTRNTLKELEAKAYKQIDARGGNPELVALVKHLSKMFKEENE
B8: SART3 94-877 (Homo sapiens, UniProt Q15020); sequence looked up; chain NQLEIERLEEQLSINVYDYNCHVDLIRLLRLEGELTKVRMARQKMSEIFPLTEELWLEWLHDEISMAQDGLDREHVYDLFEKAVKDYICPNIWLEYGQYSVGGIGQKGGLEKVRSVFERALSSVGLHMTKGLALWEAYREFESAIVEAARLEKVHSLFRRQLAIPLYDMEATFAEYEEWSEDPIPESVIQNYNKALQQLEKYKPYEEALLQAEAPRLAEYQAYIDFEMKIGDPARIQLIFERALVENCLVPDLWIRYSQYLDRQLKVKDLVLSVHNRAIRNCPWTVALWSRYLLAMERHGVDHQVISVTFEKALNAGFIQATDYVEIWQAYLDYLRRRVDFKQDSSKELEELRAAFTRALEYLKQEVEERFNESGDPSCVIMQNWARIEARLCNNMQKARELWDSIMTRGNAKYANMWLEYYNLERAHGDTQHCRKALHRAVQCTSDYPEHVCEVLLTMERTEGSLEDWDIAVQKTETRLARVNEQRMKAAEKEAALVQQEEEKAEQRKRARAEKKALKKKKKIRGPEKRGADEDDEKEWGDDEEEQPSKRRRVENSIPAAGETQNVEVAAGPAGKCAAVDVEPPSKQKEKAASLKRDMPKVLHDSSKDSITVFVSNLPYSMQEPDTKLRPLFEACGEVVQIRPIFSNRGDFRGYCYVEFKEEKSALQALEMDRKSVEGRPMFVSPCVDKSKNPDFKVFRYSTSLEKHKLFISGLPFSCTKEELEEICKAHGTVKDLRLVTNRAGKPKGLAYVEYENESQASQAVMKMDGMTIKENIIKVAISN
B9: ACAT1 35-427 Y219F (Homo sapiens, UniProt P24752); pY407; chain SKPTLKEVVIVSATRTPIGSFLGSLSLLPATKLGSIAIQGAIEKAGIPKEEVKEAYMGNVLQGGEGQAPTRQAVLGAGLPISTPCTTINKVCASGMKAIMMASQSLMCGHQDVMVAGGMESMSNVPYVMNRGSTPYGGVKLEDLIVKDGLTDVYNKIHMGSCAENTAKKLNIARNEQDAYAINSFTRSKAAWEAGKFGNEVIPVTVTVKGQPDVVVKEDEEYKRVDFSKVPKLKTVFQKENGTVTAANASTLNDGAAALVLMTADAAKRLNVTPLARIVAFADAAVEPIDFPIAPVYAASMVLKDVGLKKEDIAMWEVNEAFSLVVLANIKMLEIDPQKVNINGGAVSLGHPIGMSGARIVGHLTHALKQGEYGLASICNGGGGASAMLIQKL
B10: Gphn (Rattus norvegicus, UniProt Q03555); sequence looked up; chain MATEGMILTNHDHQIRVGVLTVSDSCFRNLAEDRSGINLKDLVQDPSLLGGTISAYKIVPDEIEEIKETLIDWCDEKELNLILTTGGTGFAPRDVTPEKFPTFPFCGLQKGATKEVIEREAPGMALAMLMGSLNVTPLGMLSRPVCGIRGKTLIINLPGSKKGSQECFQFILPALPHAIDLLRDAIVKVKEVHDELEDLPSPPPPLSPPPTTSPHKQTEDKGVQCEEEEEEKKDSGVASTEDSSSSHITAAALAAKIPDSIISRGVQVLPRDTASLSTTPSESPRAQATSRLSTASCPTPKQIRRPDESKGVASRVGSLKVQSRCSSKENILRASHSAVDITKVARRHRMSPFPLTSMDKAFITVLEMTPVLGTEIINYRDGMGRVLAQDVYAKDNLPPFPASVKDGYAVRAADGPGDRFIIGESQAGEQPTQTVMPGQVMRVTTGAPIPCGADAVVQVEDTELIRESDDGTEELEVRILVQARPGQDIRPIGHDIKRGECVLAKGTHMGPSEIGLLATVGVTEVEVNKFPVVAVMSTGNELLNPEDDLLPGKIRDSNRSTLLATIQEHGYPTINLGIVGDNPDDLLNALNEGISRADVIITSGGVSMGEKDYLKQVLDIDLHAQIHFGRVFMKPGLPTTFATLDIDGVRKIIFALPGNPVSAVVTCNLFVVPALRKMQGILDPRPTIIKARLSCDVKLDPRPEYHRCILTWHHQEPLPWAQSTGNQMSSRLMSMRSANGLLMLPPKTEQYVELHKGEVVDVMVIGRL
B11: spo0J A232G (Bacillus subtilis, UniProt P26497); chain MAKGLGKGINALFNQVDLSEETVEEIKIADLRPNPYQPRKHFDDEALAELKESVLQHGILQPLIVRKSLKGYDIVAGERRFRAAKLAGLDTVPAIVRELSEALMREIALLENLQREDLSPLEEAQAYDSLLKHLDLTQEQLAKRLGKSRPHIANHLRLLTLPENIQQLIAEGTLSMGHGRTLLGLKNKNKLEPLVQKVIAEQLNVRQLEQLIQQLNQNVPRETKKKEPVKDGVLKERESYLQNYFGTTVNIKRQKKKGKIEIEFFSNEDLDRILELLSERES
B12: cfbA 1-143 S11L (Methanocaldococcus jannaschii, UniProt Q58380); chain MEALVLVGHGLRLPYSKELLVKLAEKVKERNLFPIVEIGLMEFSEPTIPQAVKKAIEQGAKRIIVVPVFLAHGIHTTRDIPRLLGLIEDNHEHHHEHSHHHHHHHHHEHEKLEIPEDVEIIYREPIGADDRIVDIIIDRAFGR
Sequence of UniProt P49850 (whole entry, looked up): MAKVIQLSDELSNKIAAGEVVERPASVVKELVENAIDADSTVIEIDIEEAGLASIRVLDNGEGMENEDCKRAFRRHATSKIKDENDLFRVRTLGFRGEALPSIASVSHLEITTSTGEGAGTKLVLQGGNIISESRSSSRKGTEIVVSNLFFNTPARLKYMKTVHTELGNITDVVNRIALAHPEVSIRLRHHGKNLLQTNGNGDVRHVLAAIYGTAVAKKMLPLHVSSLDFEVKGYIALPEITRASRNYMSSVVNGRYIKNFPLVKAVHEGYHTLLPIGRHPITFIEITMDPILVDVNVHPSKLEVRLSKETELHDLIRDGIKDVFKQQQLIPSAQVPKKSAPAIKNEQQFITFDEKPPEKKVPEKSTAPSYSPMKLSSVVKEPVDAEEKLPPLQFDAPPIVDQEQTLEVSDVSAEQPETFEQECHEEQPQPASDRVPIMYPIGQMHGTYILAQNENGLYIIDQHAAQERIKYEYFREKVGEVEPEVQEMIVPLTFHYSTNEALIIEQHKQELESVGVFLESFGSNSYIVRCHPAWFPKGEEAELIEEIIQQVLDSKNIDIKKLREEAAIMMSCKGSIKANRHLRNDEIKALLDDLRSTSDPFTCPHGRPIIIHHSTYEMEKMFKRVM

| Substance | method | notes | subunits per oligomer |
| --- | --- | --- | --- |
| B1 (SLFN11 1-901 E209A/E214A) | SEC |  | 2 |
| B2 | cross-linking |  | 2 |
| B3 (cutA1 1-112) | native MS |  | 3 |
| B4 (Ikbkg 251-355) | AUC |  | 2 |
| B5 (PHYA I748P) | SEC |  | 2 |
| B6 (ldh 1-316) | dynamic light scattering |  | 2 |
| mutL (Bacillus subtilis, UniProt P49850) | SEC |  | 2 |
| VSRVSREELEDRFLRLHDENILLKQHARKQEDKIKRMATKLIRLVNDKKRYERVGG (Rpgrip1l 42-97 (Mus musculus, UniProt Q8CG73); sequence looked up) | SEC-MALS |  | 2 |
| B7 (GGPS1 R235C) | native MS |  | 2 |
| B8 (SART3 94-877) | SEC-MALS |  | 2 |
| MRKVVSVRLKEDVLRDVDIYTRKLGLNSRTEFIKQAIEFYIKSKS (SiRe_1373 (Saccharolobus islandicus, UniProt F0NI75); sequence looked up) | SEC |  | 2 |
| B9 (ACAT1 35-427 Y219F) | native gel | Y219F mutant | 4 |
| MKGMSKMPQFNLVWPREVLDLVRKVAEENGRSVNSEIYQRVMESFKKEGRIGA (Arc repressor 1-53 R13V (P22 phage, UniProt P03050)) | SEC |  | 2 |
| B10 (Gphn) | SEC |  | 3 |
| B11 (spo0J A232G) | SEC-MALS |  | 2 |
| B12 (cfbA 1-143 S11L) | SEC |  | 2 |
